Results collected from several papers.
Each numbered part is a random draw from the data of one study; scales do not carry over between parts.

Sample 1
Target: Prothrombin, mature alpha-thrombin (F2, Homo sapiens, UniProt P00734)
Technique: aptamer microarray, sandwich
Molecule type: DNA with 2'F-ANA
Matrix: in vitro
Concentration: 200 nM
Notes: whole 15-mer aptamer, many near background
Together with: Cy3 exosite-II aptamer, 400 nM
Direction: higher = stronger binding
Oligonucleotide: GGTTGGTGTGGTTGG
| Modification | mean fluorescence intensity |
| --- | --- |
| 2'F-ANA at 1 5 6 7 15 | 64.1 a.u. |
| 2'F-ANA at 2 8 12 13 14 | 207 a.u. |
| 2'F-ANA at 1 2 5 7 8 10 11 12 13 14 | 103 a.u. |
| 2'F-ANA at 1 2 5 6 7 8 9 10 14 | 53.8 a.u. |
| 2'F-ANA at 2 5 6 8 9 11 12 | 133 a.u. |
| 2'F-ANA at 1 3 5 6 10 12 14 15 | 53 a.u. |
| 2'F-ANA at 1 2 3 4 7 8 9 10 11 13 14 | 54.2 a.u. |
| 2'F-ANA at 2 5 7 10 13 | 109 a.u. |
| 2'F-ANA at 1 2 3 9 | 210 a.u. |
| 2'F-ANA at 1 2 8 13 15 | 155 a.u. |
| 2'F-ANA at 1 6 9 14 15 | 54 a.u. |
| 2'F-ANA at 1 2 4 8 9 10 13 14 | 51.4 a.u. |
| 2'F-ANA at 3 4 5 7 12 13 14 15 | 55.4 a.u. |
| 2'F-ANA at 1 7 9 10 14 15 | 47.9 a.u. |
| 2'F-ANA at 5 9 10 11 12 14 15 | 60.8 a.u. |
| 2'F-ANA at 6 8 12 14 15 | 232 a.u. |
| 2'F-ANA at 1 5 6 7 12 13 | 82.8 a.u. |
| 2'F-ANA at 1 2 6 8 9 11 14 15 | 54.4 a.u. |
| 2'F-ANA at 1 2 3 4 7 8 9 13 | 127 a.u. |
| 2'F-ANA at 2 4 5 7 8 9 11 12 | 139 a.u. |
| 2'F-ANA at 1 5 6 8 10 12 13 | 137 a.u. |

Sample 2
Target: Ras GTPase-activating protein-binding protein 1, C-terminal RGG region (G3BP1, Homo sapiens, UniProt Q13283)
UniProt Q13283, sequence (whole entry, looked up): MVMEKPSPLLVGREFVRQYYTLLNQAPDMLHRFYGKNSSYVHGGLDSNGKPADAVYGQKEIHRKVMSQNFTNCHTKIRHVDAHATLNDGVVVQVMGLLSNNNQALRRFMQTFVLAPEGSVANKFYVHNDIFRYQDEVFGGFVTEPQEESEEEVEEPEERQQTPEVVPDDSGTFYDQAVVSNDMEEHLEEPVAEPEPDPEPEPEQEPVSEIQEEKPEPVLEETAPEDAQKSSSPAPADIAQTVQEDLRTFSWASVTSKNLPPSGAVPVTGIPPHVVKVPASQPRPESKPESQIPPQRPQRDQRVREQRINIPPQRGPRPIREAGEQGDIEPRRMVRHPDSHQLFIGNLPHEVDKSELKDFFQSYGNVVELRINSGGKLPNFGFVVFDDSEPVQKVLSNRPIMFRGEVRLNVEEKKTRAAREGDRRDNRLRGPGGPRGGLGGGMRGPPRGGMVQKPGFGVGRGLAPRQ
Technique: RNA Bind-n-Seq
Molecule type: RNA
Matrix: in vitro
Concentration: 1 µM
Notes: whole 134-nt RNA, ends assumed
Together with: 150 mM KCl
Reference: input library
Direction: higher = stronger binding
Constant ends, left off below: GGGAGUUCUACAGUCCGACGAUC … UGGAAUUCUCGGGUGUCAAGG
| Oligonucleotide | log2 enrichment |
| --- | --- |
| UCCAGCCACUCACCGGCGAUCCAGGUCCAGAACCCCCCUGAUAAGCCGACGUAGGUCCAGAUCUCGAACUUCACCAGUCAGCCGGAGACG | -0.247 |
| UCCUGUGCUACACAUCGUAUGUACCGAAUCGGGGAAAGGGGUUUGGGGAAAAAAAGGGGAAAGUAUUAUGUUACGCCGUUCGGAUCUGCA | 1.5 |
| CUCAAGUCCUGUGCUACACAUCGUAUGUACCGAAUCGGUGGAGGUUUUUUUGGAAAGUAUUAUGUUACGCCGUUCGGAUCUGCACUUCCA | -0.975 |
| UGGCCCUGGUGGCAUGCGGGGAGGAAGAGGUGGCCUCAUGGAUCGUGGUGGUCCCGGUGGAAUGUUCAGAGGUGGCCGUGGUGGAGACAC | 2.96 |
| CCUGUGCUACACAUCGUAUGUACCGAAUCAAAUUUUUAAAUUUUUUUAAAUUUUUUUAAAAAAGUAUUAUGUUACGCCGUUCGGAUCUGC | -2.41 |
| CCUGUGCUACACAUCGUAUGUACCGAAUCGGGGUUUUUUUGGGUUUUUUUGGUUUUUUUGGAAAGUAUUAUGUUACGCCGUUCGGAUCUG | -1.3 |
| UAACUUUAUAGGAGGAUCUGAUGGAUAUGGCAGUGGACGUGGAUUUGGGGAUGGCUAUAAUGGGUAUGGAGGAGGACCUGGAGGUGGCAA | -1.4 |
| CCUGUGCUACACAUCGUAUGUACCGAAUCGGGGCCCCCCCGGGCCCCCCCGGCCCCCCCGGAAAGUAUUAUGUUACGCCGUUCGGAUCUG | -1.27 |
| GUCCUGUGCUACACAUCGUAUGUACCGAAUCGGGGUUUGGGGAAAAAGGGGAAAGGGGAAAGUAUUAUGUUACGCCGUUCGGAUCUGCAC | 3.29 |
| GCAGGAAGUAAAAACAAAUGGAAAUGCUUCGGAUAGUGGCAGGGGUGGGGGUUGCUAAGGAAAGGGUGGGAUGGGAAAAGGUAAAGAGUU | 2.07 |
| ACCAUGCAGGUGGGCAUCUUUGGGAAGUGGGGCAAGGGGGGGAUAGGGAGGGGGGUAACACUUUGGGAACAGGUGGUCCCAGGUCGAUUC | 1.42 |
| GCAGGAAGUAAAAACAAAUGGAAAUGCUUCGGAUAGUGGCAGGGGUGGGGGUUGCUAAGGAAAGGGUGGGAUGGGAGUGGGUACAGAGUU | 0.511 |
| UGGCCCUGGUGGCAUGCGGGGAGGAAGAGGUGGCCUCAUGGAUCGUGGUGGUCCCGGUGAAAUGUUCAGAGGUGGCCGUGGUGGAGACAG | 1.61 |
| GCAGGAAGUAAAAACAAAUGGAAAUGCUUCGGAUAGUGGGAGGGGUGGGGGUUGCUAAGGAAAGGGUGGGAUGGGAGUGGGUAAAGAGUU | 1.88 |

Sample 3
Target: Histone acetyltransferase KAT6A, winged helix 1, GST fusion (KAT6A, Homo sapiens, UniProt Q92794, residues 1-85)
Technique: protein binding microarray
Molecule type: double-stranded DNA, one strand shown
Matrix: in vitro
Concentration: not given
Notes: 8-mer, flanks averaged, mean of 2 arrays, mostly near background
Reference: not given
Direction: higher = stronger binding
Construct (chain): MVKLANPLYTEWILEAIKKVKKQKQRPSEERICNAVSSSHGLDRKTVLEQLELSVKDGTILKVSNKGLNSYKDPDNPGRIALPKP
| Oligonucleotide | E-score |
| --- | --- |
| AGACTCCT | -0.162 |
| ATAACTGA | -0.144 |
| TCCTGCGA | 0.00029 |
| AATGACGC | 0.0894 |
| GTAATGCA | -0.132 |
| TCACCTGA | -0.196 |
| CTAGCGAC | 0.0493 |
| GAGCACTA | -0.0299 |
| AACATTCG | -0.136 |
| TATGTTCA | -0.179 |
| GTCCAACA | -0.212 |
| CAAGCATC | -0.0105 |
| CGAATTGC | 0.162 |
| CGAGGAAA | -0.146 |
| AAATCTGT | -0.202 |
| ATTGTAGG | -0.245 |
| ACGATGGC | -0.0855 |
| GATTTCGA | 0.0109 |
| CCCTGACC | -0.0433 |
| ATGCTTAC | 0.00391 |
| GCTCGTAC | 0.0328 |
| ACCAGTAG | -0.192 |
| CCGTGGAG | 0.25 |
| AATATGGG | -0.189 |

Sample 4
Target: RNA binding protein fox-1 homolog 2, RRM domain, GST-SBP tag (RBFOX2, Homo sapiens, UniProt O43251-10, residues 100-194)
Technique: RNA Bind-n-Seq
Molecule type: RNA
Matrix: in vitro
Concentration: 365 nM
Notes: natural RNA segment, single round, ends assumed
Reference: no-protein control
Direction: higher = stronger binding
Constant ends, left off below: GGGAGUUCUACAGUCCGACGAUC … UGGAAUUCUCGGGUGCCAA
Construct (chain): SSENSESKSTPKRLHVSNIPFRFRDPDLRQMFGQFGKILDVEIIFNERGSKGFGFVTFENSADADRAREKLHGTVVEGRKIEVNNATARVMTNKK
| Oligonucleotide | RBNS enrichment (R) |
| --- | --- |
| CACCAGCUCAGCUGAGGCAUCCCAGCCAGGCAGGACCCUUGAGGGCCGCUGUAUCCAUGGUGAUGGGGUGAGGUUUUGGCCAAAAGGCCAAAGACUGGUGGUGGGUCCAC | 0.359 |
| UAUCUCUAAUACUUGGCAACAUAAGGUGCUUGCAAACACUAAGGCUGCCCCCUGCAAAGUAAACUCCAAGACAAACCAAACCCAAGGUACAAAUGUGUUACACAUAAAUG | 0.278 |
| CGGUCCAUCCCUAUUUACAAAGCUAUGGGCCACUGUCAGCACAUUAAACAAGGUGAGGGAGAGUAGCUGCCUCCGUGUCACCUUGUCUGCCUGGGUCUCUGAGGAAGGAG | 0.376 |
| CCCUCCUGGUGCUCUAUCCACUGCAGGGCCAGCCACUCGCCAGGAGGCCACGGGCCACGGGAAGAACCAAGCGGUGCCAGCCACGAGACGUCACCAAGAAAACAUGCAAC | 0.644 |
| GAACCCCACUCAGCGAAUUGGGGGUGGCCUGGGAGAUGCUGCUGAUGUCCAGAGGCACCCCUUUUUCCGGCACAUCAAUUGGGAUGAUCUCUUGGCCCGCCGCGUGGACC | 0.494 |
| GCUGGCUCUCAAACUUGAUGCUCUUGCCUCAGCCUUCCAGUGCUGAAAUUUCAGGCUGCUGCAAACAGCCAUACCUGGCAAGAGAAGUCUUCUAAUCUGGAAACCUGUGA | 0.301 |
| UCAUUAUUUCUAUUACCAUGGAUAAAAAAGUCAGCUGCUACGUUGAUAUCCCUUCUAUGAGCACAUUCUUAGCAGAAGAAAACAAUCCAACUACCAACACCCGACUCUAU | 0.593 |
| CUAAUCUAGAGCUGACCAGUUUGAGCUGAUUCUCUCUUUGAAGAGUCCUUCUUGAUUGCAGUGCAGUACUGGCAUUUCUGAAUGGAUGUAAGUGGAGUAUUUUAGUCUAA | 0.31 |
| UGCAGAUGGGAGGAGCAGUGGUGCCUCAAGUCUGCACAUGCUCUGCUUCUAGAAGACUGACUGUGGAUUAGCUUAGUGUACAGACUUUAAACAGCUGCUCCCUCAGCUCA | 0.446 |
| GUAAAAAUUAAUUUAUUUGUGUUAUCUUGUAUUGACAAAUAAAAAUCUUUACUACUUUCUCAAGCCCGGUCUGUCUUGUCCAUUCUGCCUGCCCCAUAGUGGAGCCCAAG | 0.866 |
| UAGCAAAAACCCUAUCGGCCAGAUCAGUGUUACAUUGAUUCUAAGAUUACAGUAUGUCCCAUCAAACAUCUGCUGUAGGUGAGGGAGUGGAUUUGAAGAGGGGUUGAAAG | 0.47 |
| AAUUGUGGAUCAUUUACCUUGAGGCUGCAGAGUGGGUUCCAGGACUCUUACUUCACUGUGGAGGGACUUCGAGCAUCAGGUGGCUCUCUCAUGUUCCUGCCCCCUUUACU | 0.401 |

Sample 5
Target: Interferon regulatory factor 7, full length, phosphomimetic (IRF7, Homo sapiens, UniProt Q92985, residues 1-503, S101K/S471D/S472D/S475D/S476D/S477D/S483D/S484D/S487D)
UniProt Q92985, sequence (whole entry, unmodified, looked up): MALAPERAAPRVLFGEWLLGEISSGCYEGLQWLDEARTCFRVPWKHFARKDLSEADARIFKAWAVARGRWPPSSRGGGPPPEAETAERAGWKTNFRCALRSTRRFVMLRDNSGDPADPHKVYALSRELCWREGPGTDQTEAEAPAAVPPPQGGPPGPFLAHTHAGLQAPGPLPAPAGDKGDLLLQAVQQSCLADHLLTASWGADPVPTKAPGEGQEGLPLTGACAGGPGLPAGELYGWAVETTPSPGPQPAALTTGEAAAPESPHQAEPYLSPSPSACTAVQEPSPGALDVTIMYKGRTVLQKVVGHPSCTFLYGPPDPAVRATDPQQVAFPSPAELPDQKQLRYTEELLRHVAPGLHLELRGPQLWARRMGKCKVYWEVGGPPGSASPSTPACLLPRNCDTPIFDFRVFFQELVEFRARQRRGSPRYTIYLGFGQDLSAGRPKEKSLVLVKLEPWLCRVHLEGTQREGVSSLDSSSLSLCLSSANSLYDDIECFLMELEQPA
Technique: protein-binding microarray
Molecule type: double-stranded DNA, one strand shown
Matrix: in vitro
Concentration: 250 nM
Notes: 60-bp whole probe
Together with: salmon DNA 0.4 mg/ml
Reference: random background probes
Direction: higher = stronger binding
Constant ends, left off below: GCCTAGCAC … GTCTTGATTCGCTTGACGCTGCTG
| Oligonucleotide | log fluorescence [z-score] |
| --- | --- |
| TCACCTTTCTGCCTCAGACTGTGCTAG | 0.64 |
| TTAGATAACAGACTGGATTAGTGCTAG | -0.143 |
| TTAGGTCTCCTACCGCTTTAGTGCTAG | 0.0014 |
| CCCAGGACCCTGGAACTGGCGTGCTAG | -0.363 |
| GACGGTATCCTACTGCTGACGTGCTAG | -0.237 |
| TTAGGTATGGACTTTCGGTTAGTGCTA | 0.796 |
| GACGGTATCGGTTTCGGGATGTGCTAG | 7.85 |
| GACGATAACAGTATCGAGACGTGCTAG | 0.113 |
| TTAGAACTGAGTATAGATTAGTGCTAG | -0.138 |
| GACGGTTTCGGTAACGGGACGTGCTAG | 4.03 |
| TTTTTCTCCTATTTAAGACAGTGCTAG | 2.98 |
| TCATTTCTTTAACTCATACTGTGCTAG | 1.75 |
| GACGATATCGGGACTGAAGACGTGCTA | -0.0705 |
| TTCGGTTTCGGTTTCGGTTAGTGCTAG | 15 |
| TAAGATCTCAGACTGGATTAGTGCTAG | -0.0805 |
| GACGATTTCAGACTGGAGTCGTGCTAG | 0.134 |
| TTATGTTTCGGGTTTCGGTTAGTGCTA | 9.78 |
| TCACATTTGGAAAATGTAACTGTGCTA | 0.956 |
| ATGTTTTGAGTTTTCCTTCAGTGCTAG | 1.74 |
| TCATATTTAGAACTTCTCACTGTGCTA | 0.653 |
| TTAGGACTAGGGTATCGGTTAGTGCTA | 1.21 |
| GACGGACTCGACTTTCGGGACGTGCTA | 1.79 |
| CACATTGTGCAATCTTAATAAGTGCTA | 0.816 |
| CTGGAATCAATTTATTGACCGTGCTAG | -0.165 |
| TTAGATTTCATTATCGATTAGTGCTAG | 0.91 |

A few entries again (sample 5):
| Oligonucleotide | log fluorescence [z-score] |
| --- | --- |
| GACGGTTTCGGTAACGGGACGTGCTAG | 4.03 |
| TTTTTCTCCTATTTAAGACAGTGCTAG | 2.98 |
| TCATTTCTTTAACTCATACTGTGCTAG | 1.75 |
| GACGATATCGGGACTGAAGACGTGCTA | -0.0705 |
| TTCGGTTTCGGTTTCGGTTAGTGCTAG | 15 |
| TAAGATCTCAGACTGGATTAGTGCTAG | -0.0805 |
| GACGATTTCAGACTGGAGTCGTGCTAG | 0.134 |
| TTATGTTTCGGGTTTCGGTTAGTGCTA | 9.78 |
| TCACATTTGGAAAATGTAACTGTGCTA | 0.956 |
| ATGTTTTGAGTTTTCCTTCAGTGCTAG | 1.74 |
| TCATATTTAGAACTTCTCACTGTGCTA | 0.653 |
| TTAGGACTAGGGTATCGGTTAGTGCTA | 1.21 |
| GACGGACTCGACTTTCGGGACGTGCTA | 1.79 |
| CACATTGTGCAATCTTAATAAGTGCTA | 0.816 |
| CTGGAATCAATTTATTGACCGTGCTAG | -0.165 |
